Results pooled from the literature.
Lines come from different studies, so protocols differ. Numbers after ± are the reported error.
Sequence of UniProt P33261 (whole entry, looked up): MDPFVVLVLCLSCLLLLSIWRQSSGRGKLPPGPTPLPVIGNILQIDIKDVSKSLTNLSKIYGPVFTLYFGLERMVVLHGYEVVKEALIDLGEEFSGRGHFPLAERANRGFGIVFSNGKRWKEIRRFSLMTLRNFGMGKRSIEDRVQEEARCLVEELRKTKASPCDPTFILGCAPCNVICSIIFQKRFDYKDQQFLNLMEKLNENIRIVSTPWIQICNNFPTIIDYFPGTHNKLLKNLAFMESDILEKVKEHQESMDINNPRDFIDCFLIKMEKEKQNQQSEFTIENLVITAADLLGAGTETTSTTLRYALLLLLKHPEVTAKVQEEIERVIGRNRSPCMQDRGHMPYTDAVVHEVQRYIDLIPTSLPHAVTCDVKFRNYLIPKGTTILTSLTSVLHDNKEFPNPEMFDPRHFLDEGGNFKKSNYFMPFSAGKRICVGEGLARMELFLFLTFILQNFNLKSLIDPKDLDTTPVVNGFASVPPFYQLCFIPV

O=C(O[C@H](CO)C(F)(F)F)N1C[C@@H]2[C@H](C1)[C@H]2c1ccn(-c2ccc([18F])nc2)n1 — parent fraction of radioactivity (Sprague-Dawley rat, plasma; dose not given, 30 min): 46%
COc1cc(NC(C)=O)c2c(c1O)-c1c(OC)c(OC)cc3c1C(C2)N(C)CC3 (stereo not shown) — CL/F (male Wistar rat, plasma; oral, 200 mg/kg): 57 mL/min/kg
Cc1ccc(OCC(=O)N(Cc2cccs2)c2ccn[nH]2)cc1 — oral bioavailability (beagle dog, male, plasma; oral gavage, 100 mg/kg): 0.75%
[11CH3]c1ccc2nc(C3CCC3)n(-c3ccc4[nH]ncc4c3)c2n1 — absorbed dose (extrapolated from mouse biodistribution; human female, red marrow): 2.7 µSv/MBq
Cc1cn(CC(=O)N[C@@H](Cc2ccccc2)C(=O)N[C@@H](Cc2ccccc2)C(=O)O)c(=O)[nH]c1=O — nanofiber width (TEM; hydrogel in water; 2.0 wt%, pH 5.0 or 7.4, together with: alkaline phosphatase at pH 7.4): 9 nm
C[Si]1(C[C@H](CN)CC(=O)O)CCCC1 — performance time (neuromuscular coordination; Wistar rat male; oral, 100 mg/kg, 3 h): 180 s
CC/C=C\C/C=C\C/C=C\C/C=C\C/C=C\CCCCOC(CC)C(=O)O (stereo not shown) — tissue concentration (14C radiolabel; Wistar rats male, liver; oral, 100 mg/kg, 8 h): 145 µg/g
CCC(=O)N1CC=C(c2cc3c(Nc4cc5ncsc5cc4F)ncnc3s2)CC1 — intrinsic clearance (human liver microsomes; 1 µM): 14 mL/min/g protein
Cc1ccc(/N=N/c2c(O)ccc3ccccc23)c(C)c1 — measured concentration (extracted rat blood QC samples; 0.5 µg/L, 4 h, room temperature, short-term stability): 0.487 µg/L
CC[C@@H](C)N([11CH3])C(=O)c1nc(-c2ccc(Cl)cc2)c2ccccc2n1 — total volume of distribution (PET Logan analysis; male rhesus monkey, cerebellum; intravenous, dose not given, baseline): 25.6 mL/cm³
COC(=O)C1OC(Oc2c(-c3ccccc3)oc3cc(O)c(O)c(O)c3c2=O)C(O)C(O)C1O (stereo not shown) — organ weight (BALB/c mouse, thymus; 2 mg/kg): 0.26 ± 0.08 g
CC12CC(c3ccc(S(C)(=O)=O)cc3)C3=C4CCC(=O)C=C4CCC3C1CCC2(O)C(F)(F)C(F)(F)F (stereo not shown) — drug-related constipation incidence (human; oral, 5 mg single; reference: subjects): 33.3%
[64Cu+2].c1ccc(CNCc2ccc(CN3CCCN4CCNCCCN(CC4)CC3)cc2)nc1 — tissue uptake (CXCR4 (human); NOD/SCID mice, U87 xenografts, U87 control tumour; 60 min post-injection): 2.54 ± 0.47 %ID/g
COc1cc(C)c(Cc2ccc(O)cc2)cc1[C@@H]1S[C@H](CO)[C@@H](O)[C@H](O)[C@H]1O — Tmax (Japanese T2DM patients, plasma; 1 mg luseogliflozin, day 1, once daily): 4.75 ± 1.83 h
CC[C@H](C)[C@H](NC(=O)[C@H](CCCNC(=N)N)NC(=O)[C@@H](NC(=O)[C@H](CO)NC(=O)[C@@H](NC(=O)[C@@H](NC(=O)[C@H](CS)NC(=O)[C@H](CCCCN)NC(=O)[C@@H](N)CCCNC(=N)N)C(C)C)[C@@H](C)CC)C(C)C)C(=O)N[C@@H](CCCNC(=N)N)C(=O)N[C@@H](CC(N)=O)C(=O)N[C@@H](CCCNC(=N)N)C(=O)N[C@@H](CCCNC(=N)N)C(=O)N[C@@H](C)C(=O)N[C@@H](CC(N)=O)C(=O)N[C@H](C(=O)N[C@@H](CCCCN)C(=O)N[C@H](C(=O)N[C@@H](CC(C)C)C(=O)N[C@@H](CS)C(=O)N[C@@H](CC(N)=O)C(=O)O)[C@@H](C)CC)[C@@H](C)CC — single disulfide form (LC-MS; PBS; 0.1 mg/mL): 39%
Cc1ccc(-c2ccc(-c3cc4sccc4o3)cn2)nc1 — fluorescence quantum yield (DMSO; together with: quinine bisulfate reference): 0.76
N=C(N)NCCC[C@@H]1NC(=O)[C@H](Cc2c[nH]c3ccccc23)NC(=O)[C@@H](CC2CCCCC2)NC(=O)[C@@H]2CCCN2C(=O)[C@@H](NC(=O)CCc2ccccc2)CCCNC1=O — beta rate constant (two-compartment model; C57BL/6J mice, brain; oral, 1 mg/kg): 0.25 h⁻¹
N#Cc1cc(C(=O)OCC[18F])c(C(F)(F)F)nc1N1CCC(C(=O)NS(=O)(=O)c2ccc(Cl)s2)CC1 — blood half-life (mouse, whole blood; intravenous, 11.1 MBq): 0.452 h
CC(C)C[C@H](NC(=O)C[C@H](O)[C@H](CC(C)C)NC(=O)[C@H](Cc1c[nH]cn1)NC(=O)CNC(=O)[C@@H](NC(=O)[C@H](C)NC(=O)[C@H](Cc1c[nH]c2ccccc12)NC(=O)[C@H](CCC(N)=O)NC(=O)[C@@H](Cc1ccccc1)NC(=O)CCNC(=O)CCNC(=O)CN1CCN(CC(=O)O)CCN(CC(=O)O)CCN(CC(=O)O)CC1)C(C)C)C(N)=O [lutetium-177 labelled] — absorbed dose (MIRD; mouse PC-3 xenograft, kidneys; intraperitoneal, 50 MBq, without PA): 7.3 Gy
CCCC(CCC)NC(=O)c1ccc(OC2OC(C(=O)O)C(O)C(O)C2O)c(O)c1 (stereo not shown) — AUC(0-last) ratio (female Sprague-Dawley rats, plasma; oral, 200 mg/kg of parent drug; reference: 200 over 20 mg/kg dose): 3.33
COC(=O)C(c1ccccc1Cl)N1CCC(SCC(=O)c2cccc(OC)c2)C(=CC(=O)O)C1 (mixture of isomers) — deviation from nominal concentration (feline EDTA plasma; 100 ng/mL, 1 weeks, room temperature): -13%
COc1cc2c(cc1OC)CN(CCCCn1ccc3cc(OCC[18F])ccc31)C2 — heart uptake (male ICR mice; intravenous, 30 min post-injection): 2.36 ± 0.26 %ID/g
C=C(c1ncc(C(=O)O)cn1)c1cc2c(cc1C)C(C)(C)CCC2(C)C — LDL level (Sprague-Dawley rat, male, plasma; oral, 100 mg/kg, 6 h, sesame oil vehicle): 13 ± 1.5 mg/dL
C=CC(=O)Nc1cc(Nc2nccc(-c3cn(C)c4ccccc34)n2)c(OCC(F)(F)F)nc1N(C)CCN(C)C — activity vs control (Cytochrome P450 2C19 (CYP2C19, Homo sapiens, UniProt P33261); enzyme activity, inhibitor; human, liver microsomes; 33.3 µM): 93.1%
O=C([O-])CN1CCN(CC(=O)[O-])CCN(CC(=O)NCCc2ccc3c(c2)C2C=CCC2C(c2cc4c(cc2Br)OCO4)N3)CCN(CC(=O)[O-])CC1.[111In+3] (stereo not shown) — tracer uptake (Hec50 tumour model; host not given, blood; 2 h, tumour-bearing): 1.21 %ID/g
COc1cc(/C=C/C(=O)O)ccc1O — freeze-thaw stability (human plasma; 2 ng/mL, 3 cycles): 97.8 ± 4.05%
[64Cu+2].c1cnc(CNCc2ccc(CN3CCCN4CCNCCCN(CC4)CC3)cc2)nc1 — tissue uptake (CXCR4 (human); NOD/SCID mice, U87 xenografts, small intestine; 90 min post-injection): 6.49 ± 1.12 %ID/g
CSCOC1C(=O)C2(C)C(OCSC)CC3OCC3(OC(C)=O)C2C(OC(=O)c2ccccc2)C2(O)CC(OC(=O)C(O)C(C=C(C)C)NC(=O)OC(C)(C)C)C(C)=C1C2(C)C (stereo not shown) — clearance (female Sprague-Dawley rat, plasma; intravenous, 2 mg/kg): 135 mL/min/kg
CC(=O)[CH](C(C)=O)[Pt-2]1([S+](C)C)[O]C(C)=CC(C)=[O+]1 (stereo not shown) — remaining in circulation (item: platinum; rat; iv, dose not given, 1 h): > 65%
OCc1cn(Cc2ccc(-c3noc(-c4ccc(OCC[18F])c(C(F)(F)F)c4)n3)cc2)nn1 — tracer uptake (rat, liver; intravenous, 5 min): 5.69 %ID/g
CCCC[C@H](NC(=O)CNC(=O)CNC(=O)CN1CCN(CC(=O)O)CCN(CC(=O)O)CC1)C(=O)N[C@H]1CC(=O)NCCCC[C@@H](C(N)=O)NC(=O)[C@H](Cc2c[nH]c3ccccc23)NC(=O)[C@H](CCCNC(=N)N)NC(=O)[C@@H](Cc2ccccc2)NC(=O)[C@H](Cc2c[nH]cn2)NC1=O [copper-64 labelled] — tissue uptake (female C57 mouse, B16/F1 melanoma, kidneys; intravenous, 0.037 MBq, 24 h): 0.74 ± 0.18 %ID/g
C[C@H](NC(=O)c1ccc2c(c1)C(=O)OC21c2ccc(O)cc2Oc2cc(O)ccc21)C(=O)N[C@@H](CCCCN)C(=O)N[C@@H](C)C(=O)N[C@@H](CCCCN)C(=O)N[C@@H](C)C(=O)N[C@@H](CCCCN)C(=O)N[C@@H](C)C(=O)N[C@@H](CCCCN)C(=O)N[C@@H](C)C(=O)N[C@@H](CCCCN)C(=O)N[C@@H](C)C(=O)N[C@@H](CCCCN)C(=O)N[C@@H](C)C(=O)N[C@@H](CCCCN)C(=O)N[C@@H](C)C(=O)N[C@@H](Cc1ccccc1)C(=O)N[C@@H](C)C(=O)N[C@@H](Cc1ccccc1)C(=O)N[C@@H](C)C(=O)N[C@@H](Cc1ccccc1)C(=O)O — uptake ratio (bovine cartilage, 90% GAG depleted; 30 µM, 24 h; reference: hydrophilic counterpart): 6.5 fold
Cn1c(=O)oc2ccc(-c3ccc(CC(C#N)NC(=O)C4CNCCCO4)c(F)c3)cc21 (stereo not shown) — skin exfoliation incidence (human; oral, 10 mg once daily, TEAE, multiple ascending dose): 0%
C[Si](C)(C)C[C@H](CN)CC(=O)O — performance time (neuromuscular coordination; Wistar rat male; oral, 300 mg/kg, 2 h): 135 s
NCC(=O)N1CCC[C@H]1C(=O)N1C[C@H](O)C[C@H]1C(=O)O — log beta (potentiometric titration; 40 °C, MA2 complex, together with: Fe(III)): 23.6
Cc1cc2c(cc1C1(c3ncc(C(=O)O)cn3)CC1)C(C)(C)CCC2(C)C — LDL level (Sprague-Dawley rat, male, plasma; oral, 100 mg/kg, 12 h, sesame oil vehicle): 5 ± 1.5 mg/dL
Cc1cccc(CSc2nc(N)c(C#N)c(-c3cccc(O[11CH3])c3)c2C#N)n1 — parent compound fraction (radio-HPLC; rat, plasma; 15 min): ~23%

A few entries again:
[11CH3]c1ccc2nc(C3CCC3)n(-c3ccc4[nH]ncc4c3)c2n1 — absorbed dose (extrapolated from mouse biodistribution; human female, red marrow): 2.7 µSv/MBq
O=C([O-])CN1CCN(CC(=O)[O-])CCN(CC(=O)NCCc2ccc3c(c2)C2C=CCC2C(c2cc4c(cc2Br)OCO4)N3)CCN(CC(=O)[O-])CC1.[111In+3] (stereo not shown) — tracer uptake (Hec50 tumour model; host not given, blood; 2 h, tumour-bearing): 1.21 %ID/g
COc1cc2c(cc1OC)CN(CCCCn1ccc3cc(OCC[18F])ccc31)C2 — heart uptake (male ICR mice; intravenous, 30 min post-injection): 2.36 ± 0.26 %ID/g
CSCOC1C(=O)C2(C)C(OCSC)CC3OCC3(OC(C)=O)C2C(OC(=O)c2ccccc2)C2(O)CC(OC(=O)C(O)C(C=C(C)C)NC(=O)OC(C)(C)C)C(C)=C1C2(C)C (stereo not shown) — clearance (female Sprague-Dawley rat, plasma; intravenous, 2 mg/kg): 135 mL/min/kg
N#Cc1cc(C(=O)OCC[18F])c(C(F)(F)F)nc1N1CCC(C(=O)NS(=O)(=O)c2ccc(Cl)s2)CC1 — blood half-life (mouse, whole blood; intravenous, 11.1 MBq): 0.452 h
N=C(N)NCCC[C@@H]1NC(=O)[C@H](Cc2c[nH]c3ccccc23)NC(=O)[C@@H](CC2CCCCC2)NC(=O)[C@@H]2CCCN2C(=O)[C@@H](NC(=O)CCc2ccccc2)CCCNC1=O — beta rate constant (two-compartment model; C57BL/6J mice, brain; oral, 1 mg/kg): 0.25 h⁻¹
